Results of several laboratories.
Protocols differ between the studies behind these lines. “And” joins repeats or separate records; there may be more than shown. Numbers after ± are the reported error.
Sequence of UniProt Q8IWT6 (whole entry, unmodified, looked up): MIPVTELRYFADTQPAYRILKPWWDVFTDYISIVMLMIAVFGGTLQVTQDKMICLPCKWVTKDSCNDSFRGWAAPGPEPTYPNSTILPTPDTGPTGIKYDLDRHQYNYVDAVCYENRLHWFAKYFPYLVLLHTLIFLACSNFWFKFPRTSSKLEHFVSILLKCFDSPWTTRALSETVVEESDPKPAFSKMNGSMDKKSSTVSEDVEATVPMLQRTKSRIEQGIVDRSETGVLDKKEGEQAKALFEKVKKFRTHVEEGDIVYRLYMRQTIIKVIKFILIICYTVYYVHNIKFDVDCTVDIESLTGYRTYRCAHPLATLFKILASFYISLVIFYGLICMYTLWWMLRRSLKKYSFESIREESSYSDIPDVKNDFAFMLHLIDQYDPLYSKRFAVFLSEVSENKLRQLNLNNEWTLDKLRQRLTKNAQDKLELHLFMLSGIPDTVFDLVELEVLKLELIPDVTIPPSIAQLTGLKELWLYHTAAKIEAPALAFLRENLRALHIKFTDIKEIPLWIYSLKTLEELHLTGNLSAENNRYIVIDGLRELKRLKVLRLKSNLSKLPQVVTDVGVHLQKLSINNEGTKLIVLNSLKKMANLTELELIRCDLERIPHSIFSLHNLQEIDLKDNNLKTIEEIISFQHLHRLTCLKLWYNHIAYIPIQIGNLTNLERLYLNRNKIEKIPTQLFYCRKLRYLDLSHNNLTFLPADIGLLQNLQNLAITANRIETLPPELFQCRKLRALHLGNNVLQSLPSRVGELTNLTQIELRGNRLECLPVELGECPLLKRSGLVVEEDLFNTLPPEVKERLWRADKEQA
Sequence of UniProt Q16774 (whole entry, unmodified, looked up): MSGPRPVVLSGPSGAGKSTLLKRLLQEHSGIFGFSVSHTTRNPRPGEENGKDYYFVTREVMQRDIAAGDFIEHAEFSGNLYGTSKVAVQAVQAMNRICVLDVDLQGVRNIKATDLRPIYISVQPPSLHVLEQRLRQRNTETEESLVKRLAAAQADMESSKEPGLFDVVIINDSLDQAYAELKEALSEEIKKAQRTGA
Sequence of UniProt Q8TBX8 (whole entry, looked up): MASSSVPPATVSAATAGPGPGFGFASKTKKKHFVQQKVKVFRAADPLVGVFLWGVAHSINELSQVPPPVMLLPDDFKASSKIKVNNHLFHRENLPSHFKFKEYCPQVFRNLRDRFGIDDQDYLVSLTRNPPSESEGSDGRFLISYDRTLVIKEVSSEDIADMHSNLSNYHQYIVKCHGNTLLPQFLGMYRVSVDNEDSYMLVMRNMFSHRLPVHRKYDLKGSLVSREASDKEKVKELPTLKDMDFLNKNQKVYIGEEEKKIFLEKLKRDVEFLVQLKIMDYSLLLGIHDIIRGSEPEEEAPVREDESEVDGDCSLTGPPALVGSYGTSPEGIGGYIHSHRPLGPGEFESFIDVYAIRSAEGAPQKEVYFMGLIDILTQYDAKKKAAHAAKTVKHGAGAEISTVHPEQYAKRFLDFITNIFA
Sequence of UniProt P02769 (whole entry, looked up): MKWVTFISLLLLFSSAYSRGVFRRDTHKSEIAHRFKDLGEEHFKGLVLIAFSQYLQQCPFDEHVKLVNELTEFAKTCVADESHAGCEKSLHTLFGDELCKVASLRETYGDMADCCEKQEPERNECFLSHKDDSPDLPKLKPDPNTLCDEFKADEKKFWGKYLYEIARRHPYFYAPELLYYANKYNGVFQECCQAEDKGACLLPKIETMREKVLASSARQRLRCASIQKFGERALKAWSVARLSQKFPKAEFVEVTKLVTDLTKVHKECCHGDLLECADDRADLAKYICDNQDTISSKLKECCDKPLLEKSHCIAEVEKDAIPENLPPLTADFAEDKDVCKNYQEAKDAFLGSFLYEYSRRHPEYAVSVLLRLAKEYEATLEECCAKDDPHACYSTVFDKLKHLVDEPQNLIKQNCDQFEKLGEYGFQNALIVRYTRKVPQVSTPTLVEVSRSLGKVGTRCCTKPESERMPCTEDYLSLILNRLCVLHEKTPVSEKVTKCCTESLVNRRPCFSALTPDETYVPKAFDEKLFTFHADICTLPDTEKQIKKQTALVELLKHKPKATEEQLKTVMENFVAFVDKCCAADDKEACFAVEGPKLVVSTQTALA
Sequence of UniProt P21169 (whole entry, looked up): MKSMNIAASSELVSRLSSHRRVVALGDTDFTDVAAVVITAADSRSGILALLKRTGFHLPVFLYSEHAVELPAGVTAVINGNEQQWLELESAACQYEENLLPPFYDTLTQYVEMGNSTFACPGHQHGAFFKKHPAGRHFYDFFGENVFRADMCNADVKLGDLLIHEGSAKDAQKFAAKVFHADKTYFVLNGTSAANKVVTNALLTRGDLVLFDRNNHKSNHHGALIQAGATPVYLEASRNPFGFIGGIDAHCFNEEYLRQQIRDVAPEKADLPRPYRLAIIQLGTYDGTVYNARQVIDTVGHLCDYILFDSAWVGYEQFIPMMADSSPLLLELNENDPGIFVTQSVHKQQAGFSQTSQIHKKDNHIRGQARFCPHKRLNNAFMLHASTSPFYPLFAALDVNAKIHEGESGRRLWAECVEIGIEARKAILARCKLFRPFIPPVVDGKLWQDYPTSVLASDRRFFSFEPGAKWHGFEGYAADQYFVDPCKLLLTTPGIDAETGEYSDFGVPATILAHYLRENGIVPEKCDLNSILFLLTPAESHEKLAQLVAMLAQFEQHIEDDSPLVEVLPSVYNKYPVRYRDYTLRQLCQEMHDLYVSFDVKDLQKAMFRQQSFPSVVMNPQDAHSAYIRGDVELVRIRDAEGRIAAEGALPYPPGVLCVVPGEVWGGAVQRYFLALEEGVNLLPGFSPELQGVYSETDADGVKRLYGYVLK
Sequence of UniProt P54762 (whole entry, looked up): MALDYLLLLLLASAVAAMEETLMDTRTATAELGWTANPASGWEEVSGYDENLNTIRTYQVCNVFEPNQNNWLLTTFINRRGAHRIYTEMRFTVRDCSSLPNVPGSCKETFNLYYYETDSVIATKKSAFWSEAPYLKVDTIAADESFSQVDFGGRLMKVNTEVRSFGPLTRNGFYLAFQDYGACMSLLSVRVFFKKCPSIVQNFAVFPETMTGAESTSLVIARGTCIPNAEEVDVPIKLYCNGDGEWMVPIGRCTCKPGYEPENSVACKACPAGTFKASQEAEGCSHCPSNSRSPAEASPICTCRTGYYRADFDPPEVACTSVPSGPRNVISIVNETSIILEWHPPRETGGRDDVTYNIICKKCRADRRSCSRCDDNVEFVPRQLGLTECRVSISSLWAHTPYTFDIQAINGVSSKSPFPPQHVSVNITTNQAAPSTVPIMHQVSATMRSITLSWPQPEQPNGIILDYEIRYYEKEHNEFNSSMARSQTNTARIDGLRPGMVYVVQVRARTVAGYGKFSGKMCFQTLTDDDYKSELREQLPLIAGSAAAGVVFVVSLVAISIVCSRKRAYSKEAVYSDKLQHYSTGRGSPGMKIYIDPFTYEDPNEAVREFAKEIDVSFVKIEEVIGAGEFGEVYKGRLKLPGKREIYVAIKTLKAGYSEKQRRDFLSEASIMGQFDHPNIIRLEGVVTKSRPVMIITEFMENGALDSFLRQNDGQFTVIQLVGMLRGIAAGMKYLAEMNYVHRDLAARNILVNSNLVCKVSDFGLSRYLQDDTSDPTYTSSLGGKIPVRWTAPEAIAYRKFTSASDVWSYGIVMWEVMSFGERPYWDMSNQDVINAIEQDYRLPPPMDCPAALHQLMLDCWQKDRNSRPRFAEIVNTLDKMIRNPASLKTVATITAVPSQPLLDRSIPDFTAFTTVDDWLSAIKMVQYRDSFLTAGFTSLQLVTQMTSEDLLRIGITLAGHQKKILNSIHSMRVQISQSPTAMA
Sequence of UniProt Q9BY41 (whole entry, looked up): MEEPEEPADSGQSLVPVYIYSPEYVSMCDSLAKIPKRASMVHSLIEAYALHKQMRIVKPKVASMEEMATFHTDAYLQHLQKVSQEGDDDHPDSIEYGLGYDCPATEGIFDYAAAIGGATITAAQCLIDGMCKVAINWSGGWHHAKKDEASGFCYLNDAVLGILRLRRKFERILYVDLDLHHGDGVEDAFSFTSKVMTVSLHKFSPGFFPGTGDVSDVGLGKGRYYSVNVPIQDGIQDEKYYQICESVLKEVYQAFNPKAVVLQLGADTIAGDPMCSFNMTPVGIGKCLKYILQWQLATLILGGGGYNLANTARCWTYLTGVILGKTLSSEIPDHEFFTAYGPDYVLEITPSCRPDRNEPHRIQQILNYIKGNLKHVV

| SMILES | target | assay | test system | setting | scale | measurement | result |
| --- | --- | --- | --- | --- | --- | --- | --- |
| Nc1nc2c(ncn2[C@@H]2O[C@@H]3COP(=O)(O)O[C@H]3[C@H]2O)c(=O)[nH]1 | Cone cGMP-gated channel (Morone saxatilis, UniProt Q3I0N1+Q3I0N2) | channel current, agonist, suction electrode | cone outer segments | single cone shown, added: 0 µM Ca2+ |  | Hill coefficient | 2 |
| Nc1nc2c(ncn2[C@@H]2O[C@H](COP(=O)(O)OP(=O)(O)O)[C@@H](OP(=O)(O)OP(=O)(O)O)[C@H]2O)c(=O)[nH]1 | speC (Escherichia coli, UniProt P21169) | ITC |  | concentration not given |  | binding stoichiometry | 1.14 ± 0.004 |
| C=CC(=O)N1CCC[C@@H](n2nc(-c3ccc(Oc4ccccc4)cc3)c3c(N)ncnc32)C1 | Ephrin type-B receptor 1 (EPHB1, Homo sapiens, UniProt P54762) |  |  | 10 µM |  | remaining activity | 129% |
| Cc1ncsc1-c1ccc([C@H](C)NC(=O)[C@@H]2C[C@@H](O)CN2C(=O)[C@@H](NC(=O)CCCCCC(=O)N2CCC3(CC2)CCN(c2cncc(Nc4ncc(Cl)c(-c5cccc(-c6ccccc6)c5)n4)c2)C3=O)C(C)(C)C)cc1 | Phosphatidylinositol 5-phosphate 4-kinase type-2 gamma (PIP4K2C, Homo sapiens, UniProt Q8TBX8) | degrader, immunoblot | HAP1 | 6 h |  | Dmax | 59% |
| CC(NC(=O)CCCc1ccc2ccc3cccc4ccc1c2c34)C(=O)NO (stereo not shown) | Histone deacetylase 8 (HDAC8, Homo sapiens, UniProt Q9BY41) | ITC | Tris-HCl buffer | concentration not given, 283 K |  | binding stoichiometry | 0.85 |
| NC(N)=NN=C(C=Cc1ccc([N+](=O)[O-])o1)C=Cc1ccc([N+](=O)[O-])o1 | NanoBiT HiBiT/LgBiT luciferase | inhibitor, HiBiT luminescence counterscreen | conditioned medium only | 5 µM, 24 h | baseline: vehicle | luminescence signal reduction | -7.72% |
| Nc1nc2c(ncn2[C@@H]2O[C@H](COP(=O)(O)O)[C@@H](O)[C@H]2O)c(=O)[nH]1 | GUK1 (Homo sapiens, UniProt Q16774, R41A) | enzyme activity, NADH-coupled |  | 15.62 µM |  | reaction rate | 0.915 s⁻¹ and 0.617 s⁻¹ and 1.06 s⁻¹ |
| O=C(Nc1cccc2c(=O)cc(-c3nnn[nH]3)oc12)c1ccc(OCCCCc2ccccc2)cc1 | LRRC8A/LRRC8C (Homo sapiens, UniProt Q8IWT6+Q8TDW0, Y124F/Y126F) | ion current, whole-cell patch clamp | HCT LRRC8-/- cells | 1 µM, -100 mV, Y124F/Y126F heteromers |  | inhibition | 7.1% and -10.2% and -12.7% and -7.66% and 39.3% and -11.1% |
| O=C(O)CN1Cc2cccc(n2)CN(CC(=O)O)Cc2cccc(n2)C1 | Albumin (ALB, Bos taurus, UniProt P02769) | binding | HEPES buffer | 0.67 mM albumin, 1.4 T |  | r1 relaxivity | 17.4 mM⁻¹ s⁻¹ |
| CC[C@H](C)[C@H](NC(=O)[C@H](Cc1ccccc1)NC(=O)[C@H](CCC(=O)O)NC(=O)[C@H](CCCNC(=N)N)NC(=O)[C@H](C)NC(=O)[C@H](C)NC(=O)[C@H](CCC(N)=O)NC(=O)[C@H](CCC(=O)O)NC(=O)[C@H](CCC(=O)O)NC(=O)[C@H](CC(C)C)NC(=O)[C@H](Cc1ccc(O)cc1)NC(=O)[C@H](CO)NC(=O)[C@H](CO)NC(=O)[C@@H](NC(=O)[C@H](CC(=O)O)NC(=O)[C@H](CO)NC(=O)[C@@H](NC(=O)[C@H](Cc1ccccc1)NC(=O)[C@@H](NC(=O)CNC(=O)[C@H](CCC(=O)O)NC(=O)[C@H](C)NC(=O)CCc1cnc[nH]1)[C@@H](C)O)[C@@H](C)O)C(C)C)C(=O)N[C@@H](C)C(=O)N[C@@H](Cc1c[nH]c2ccccc12)C(=O)N[C@@H](CC(C)C)C(=O)N[C@H](C(=O)N[C@@H](CCCNC(=N)N)C(=O)NCC(=O)N[C@@H](CCCNC(=N)N)C(=O)N[C@@H](CCCCNC(=O)COCCOCCNC(=O)COCCOCCNC(=O)CC[C@H](NC(=O)CCCCCCCCCCCCCCCCC(=O)O)C(=O)O)C(=O)NCC(=O)NCC(=O)N[C@@H](CO)C(=O)N[C@@H](CCCCNC(=O)[C@H](CCCCNC(=O)[C@H](CCCCNc1c(NCCCCCN(O)C(=O)CCC(=O)NCCCCCN(O)C(=O)CCC(=O)NCCCCCN(O)C(C)=O)c(=O)c1=O)Nc1c(NCCCCCN(O)C(=O)CCC(=O)NCCCCCN(O)C(=O)CCC(=O)NCCCCCN(O)C(C)=O)c(=O)c1=O)NC(=O)[C@H](CCCCNc1c(NCCCCCN(O)C(=O)CCC(=O)NCCCCCN(O)C(=O)CCC(=O)NCCCCCN(O)C(C)=O)c(=O)c1=O)Nc1c(NCCCCCN(O)C(=O)CCC(=O)NCCCCCN(O)C(=O)CCC(=O)NCCCCCN(O)C(C)=O)c(=O)c1=O)C(=O)O)C(C)C | Glucagon-like peptide 1 receptor (GLP1R, Homo sapiens, UniProt P43220) | agonist, CRE luciferase reporter | BHK cells | metal-free DFO conjugate, added: 0% HSA | baseline: parent peptide | fold potency loss | 12.1 |

Repeated from above:
| SMILES | target | assay | test system | setting | scale | measurement | result |
| --- | --- | --- | --- | --- | --- | --- | --- |
| Nc1nc2c(ncn2[C@@H]2O[C@H](COP(=O)(O)O)[C@@H](O)[C@H]2O)c(=O)[nH]1 | GUK1 (Homo sapiens, UniProt Q16774, R41A) | enzyme activity, NADH-coupled |  | 15.62 µM |  | reaction rate | 0.915 s⁻¹ and 0.617 s⁻¹ and 1.06 s⁻¹ |
